# Assay results from different studies.
# Values joined by “and” are separate records of one study, mostly repeats; a detail may differ. Numbers after ± are the reported error.
Compound,tested on,test,test system,conditions,how to read,measurement,value
O=C(Cc1cccc(C(F)(F)F)c1F)N1CCN(c2ccc3nncn3n2)CC1,Cryptosporidium parvum,high-content imaging,HCT-8,,,EC50,> 25000 nM
COc1ccc(NC(=O)N2CCCCN3[C@H](CN(C)S(C)(=O)=O)[C@H](c4ccc(C#Cc5ccccc5)cc4)[C@@H]3C2)cc1,Cryptosporidium parvum,parasite growth,Iowa (Sterling),,,EC50,5 nM
CC(C)C(=O)C(=O)[O-].[Na+],Cryptosporidium parvum,image-based,HCT-8,"1 mM, 24 h post-infection",relative to: PBS,relative parasite number,0.965 ± 0.163
NCCCC[C@H](N)C(=O)O,,"binding, equilibrium dialysis LC-MS",,"5 µM, thermostabilized A2AR-BRIL construct","relative to: no-protein control, direction not given",z-scored log2 fold change,0.359
COc1ccc(NC(=O)N2CCCCN3[C@H](CN(C)C)[C@H](c4ccc(C#Cc5ccccc5)cc4)[C@@H]3C2)cc1,Cryptosporidium parvum,intracellular parasite development,HCT-8,EC90,,EdU incorporation,inhibited
O=C(Cc1ccc(F)c(F)c1)N1CCN(c2ccc3nncn3n2)CC1,Cryptosporidium parvum,high-content imaging,HCT-8,,,EC50,< 1000 nM
Cc1ncc(CO)c(CN)c1O.Cl.Cl,Cryptosporidium parvum,image-based,HCT-8,"1 mM, 24 h post-infection",relative to: PBS,relative parasite number,1.02 ± 0.141
O=C(Cc1ccc(F)c(C(F)(F)F)c1)N1CCN(c2ccc3nncn3n2)CC1,Cryptosporidium parvum,,"NSG mouse, persistent infection",oral,,ED90,< 5 mg/kg twice daily
Clc1ccc(C(Cn2ccnc2)OCc2c(Cl)cccc2Cl)c(Cl)c1 (stereo not drawn),Cryptosporidium parvum,,HCT-8,,relative to: TC50 over EC50,selectivity index,10.9
O=C(Cc1ccccc1)N1CCN(c2ccc3nncn3n2)CC1,Cryptosporidium parvum,high-content imaging,HCT-8,,,EC50,22000 nM
CCCc1nn(C)c2c(=O)[nH]c(-c3cc(S(=O)(=O)N4CCN(C)CC4)ccc3OCC)nc12,Cryptosporidium parvum,"parasite growth, immunofluorescence imaging","HCT-8, Iowa",667 nM,,inhibition,-6.94% and -23.9%
O=C([O-])[C@@H](O)CO.[Na+],Cryptosporidium parvum,image-based,HCT-8,"1 mM, 24 h post-infection",relative to: PBS,relative parasite number,1.01 ± 0.104
c1ccc(CNc2nc(Nc3ccccc3)nc3ccccc23)cc1,Cryptosporidium parvum,host cell invasion,,"2× EC90, 3 h",relative to: control,inhibition,52.1% and 98.1% and 91.8%
CC(CN)C(=O)O (racemic),Cryptosporidium parvum,image-based,HCT-8,"1 mM, 24 h post-infection",relative to: PBS,relative parasite number,1.07 ± 0.08
O=C(Cc1cc(C(F)(F)F)cc(C(F)(F)F)c1)N1CCN(c2ccc3nncn3n2)CC1,Cryptosporidium parvum,"parasite growth, high-content microscopy",HCT-8,,"relative to: 3,5-dichloro analogue over compound EC50",potency fold increase,3 fold
COc1ccc(NC(=O)N2CCCCN3C[C@H](c4ccc(C#Cc5ccccc5)cc4)[C@@H]3C2)cc1,Cryptosporidium parvum,"parasite growth, high-content microscopy",Iowa (Bunch Grass Farm),10% FBS,,EC50,62 nM
CC(=O)N[C@@H](CCCN)C(=O)O,Cryptosporidium parvum,image-based,HCT-8,"1 mM, 24 h post-infection",relative to: PBS,relative parasite number,1.07 ± 0.138
CC(=O)Oc1ccccc1C(=O)Nc1ncc([N+](=O)[O-])s1,Cryptosporidium parvum,,HCT-8,"EC90, 24 h",relative to: DMSO control,parasite number,62.7% and 54.2% and 51.4% and 41.2%
O=CO,Cryptosporidium parvum,image-based,HCT-8,"1 mM, 24 h post-infection",relative to: PBS,relative parasite number,1.03 ± 0.108
COc1ccc(NC(=O)N2CCCCN3[C@H](COCCC(=O)O)[C@H](c4ccc(C#Cc5ccccc5)cc4)[C@@H]3C2)cc1,Cryptosporidium parvum,"parasite growth, high-content microscopy",Iowa (Bunch Grass Farm),1% FBS,,EC50,4 nM
NCCS(=O)(=O)O,,"binding, equilibrium dialysis LC-MS",,"5 µM, thermostabilized A2AR-BRIL construct","relative to: no-protein control, direction not given",z-scored log2 fold change,0.201

# Repeated from above:
Compound,tested on,test,test system,conditions,how to read,measurement,value
Cc1ncc(CO)c(CN)c1O.Cl.Cl,Cryptosporidium parvum,image-based,HCT-8,"1 mM, 24 h post-infection",relative to: PBS,relative parasite number,1.02 ± 0.141
O=C(Cc1ccc(F)c(C(F)(F)F)c1)N1CCN(c2ccc3nncn3n2)CC1,Cryptosporidium parvum,,"NSG mouse, persistent infection",oral,,ED90,< 5 mg/kg twice daily
Clc1ccc(C(Cn2ccnc2)OCc2c(Cl)cccc2Cl)c(Cl)c1 (stereo not drawn),Cryptosporidium parvum,,HCT-8,,relative to: TC50 over EC50,selectivity index,10.9
